{"data": "Experimental data of several laboratories"}
{"SMILES": "CC[C@@H]1CN(C(=O)NCC(F)(F)F)C[C@@H]1c1cnc2cnc3[nH]ccc3n12", "test": "population PK model", "system": "healthy, RA and CD subjects, plasma", "conditions": "oral, immediate-release formulation", "quantity": "absorption rate constant", "value": "3.6 h⁻¹"}
{"SMILES": "CC(C)(C)NC(=O)C1CCN(Cc2ccc(/N=N/c3ccc(F)cc3)cc2)CC1", "system": "DMSO", "conditions": "25 µM, 25 °C", "quantity": "absorption maximum, cis isomer", "value": "437 nm"}
{"SMILES": "Cc1ccc2c(c1)sc(-c1ccc(N(C)C)cc1)[n+]2C", "system": "PBS", "conditions": "free dye", "quantity": "absorption maximum wavelength", "value": "413 nm"}
{"SMILES": "CC(C)(C)NC(=O)C1CCN(Cc2ccc(/N=N/c3ccccc3)cc2)CC1", "system": "DMSO", "conditions": "25 µM, 25 °C", "quantity": "absorption maximum, cis isomer", "value": "439 nm"}
{"SMILES": "Cn1cncc1-c1c(F)cncc1NC(=O)c1c(N)nn2cc(F)cnc12", "test": "population PK model", "system": "patients with solid tumours, plasma", "conditions": "oral, 270 mg once daily", "quantity": "absorption rate constant ka", "value": "0.441 h⁻¹"}
{"SMILES": "CC1(C)C(/C=C/C2=C(Cl)C(=C/C=C3\\N(CCCCCC(=O)O)c4ccccc4C3(C)C)/CCC2)=[N+](CCCCCC(=O)O)c2ccccc21", "system": "methanol", "quantity": "absorption maximum", "value": "781 nm"}
{"SMILES": "COC(=O)c1ccccc1C1=c2cc3c4c(c2Oc2c1ccc1cccc(O)c21)CCC[N+]=4CCC3.[Cl-]", "system": "12.5 mM aqueous NaOH", "conditions": "pH 12.1, 10% DMSO", "quantity": "absorption maximum", "value": "643 nm"}
{"SMILES": "CC(C)(C)NC(=O)C1CCN(Cc2cccc(/N=N/c3ccc(C(F)(F)F)cc3)c2)CC1", "system": "DMSO", "conditions": "25 µM, 25 °C", "quantity": "absorption maximum, cis isomer", "value": "436 nm"}
{"SMILES": "COc1cc(-c2[o+]c3cc(O)cc(O)c3cc2O[C@@H]2O[C@H](CO)[C@@H](O)[C@H](O)[C@H]2O)ccc1O", "system": "buffer without protein", "conditions": "50 µM, pH 7", "quantity": "absorption maximum", "value": "548 nm"}
{"SMILES": "CNC(=O)c1c(C)oc2cc(Oc3ncnc4cc(OC)c(OC)cc34)ccc12", "test": "final population PK model", "system": "subject weighing 70 kg", "conditions": "oral", "quantity": "absorption rate constant ka", "value": "2.52 per h"}
{"SMILES": "COC(=O)c1ccccc1-c1c2ccc(=O)cc-2oc2c1ccc1cccc(N(C)C)c12", "system": "aqueous HCl 10% DMSO", "conditions": "10 to 15 µM, pH 1.9", "quantity": "absorption maximum", "value": "480 nm"}
{"SMILES": "CC1(C)CCC(CN2CCN(c3ccc(C(=O)NS(=O)(=O)c4ccc(NCC5CCOCC5)c([N+](=O)[O-])c4)c(Oc4cnc5[nH]ccc5c4)c3)CC2)=C(c2ccc(Cl)cc2)C1", "test": "final population PK model", "system": "AML patients, plasma", "conditions": "oral", "quantity": "absorption rate constant (Ka)", "value": "3.66 day⁻¹"}
{"SMILES": "COc1cc(-c2[o+]c3cc(O)cc(O)c3cc2O[C@@H]2O[C@H](CO)[C@@H](O)[C@H](O)[C@H]2O)cc(O)c1O", "system": "buffer without protein", "conditions": "50 µM, pH 7", "quantity": "absorption maximum", "value": "568 nm"}
{"SMILES": "CC(C)(C)NC(=O)C1CCN(Cc2cccc(/N=N/c3ccccc3)c2)CC1", "system": "DMSO", "conditions": "25 µM, 25 °C", "quantity": "absorption maximum, trans isomer", "value": "327 nm"}
{"note": "For quick reference, copied from above:"}
{"SMILES": "CC(C)(C)NC(=O)C1CCN(Cc2cccc(/N=N/c3ccc(C(F)(F)F)cc3)c2)CC1", "system": "DMSO", "conditions": "25 µM, 25 °C", "quantity": "absorption maximum, cis isomer", "value": "436 nm"}
{"SMILES": "CC(C)(C)NC(=O)C1CCN(Cc2cccc(/N=N/c3ccccc3)c2)CC1", "system": "DMSO", "conditions": "25 µM, 25 °C", "quantity": "absorption maximum, trans isomer", "value": "327 nm"}
